# Experimental data collected from several papers.
# Protocols differ between the studies behind these lines. “And” joins repeats or separate records; there may be more than shown. Numbers after ± are the reported error.
SMILES,assay,test system,setting,plasma concentration
Cn1cc([C@H]2C[C@H]3CSC(N)=N[C@@]3(c3ccc(F)cc3F)CO2)cn1,,"male 129/SVE mouse, plasma","subcutaneous, 50 mg/kg, 3 h",8920 nM
CC(=O)N(C)C1CCN(c2cc(F)cc(NC(=O)c3cc4c(F)ccc(C)c4[nH]3)c2)C1 (stereo not drawn),,"CD1 mouse, plasma","oral, 50 mg/kg, 2 h",32.1 ng/mL
C[C@@H]1CCO[C@H]2Cn3cc(C(=O)NCc4ccc(F)cc4F)c(=O)c(O)c3C(=O)N12,"population PK, post-hoc","infants aged ≥1 months, 3 to <6 kg, plasma","oral, 5 mg dispersible tablet, 24 h, steady state, geometric mean",886 ng/mL
O=C(O)CCCCCCCCC(=O)O,,"healthy human volunteers, plasma","dose not given, 0 h, baseline phase, no drug",59.7 ± 7.5 nM
CCOCc1nc(O)c(-c2nnc(Cc3ccc(Cl)cn3)o2)c(O)c1-c1c(OC)cccc1OC,,"anaesthetised rat, plasma","intravenous infusion, 100 µg/kg/min, 5 min",7860 ± 201 nM
CCN1CCN(Cc2ccc(NC(=O)c3ccc(C)c(NC(=O)c4cncc(-c5cccs5)c4)c3)cc2C(F)(F)F)CC1,LC-MS/MS,"C57BL/6 mouse, plasma","intraperitoneal, 15 mg/kg single dose, 0.5 h",520 ng/mL and 490 ng/mL and 605 ng/mL
COc1cc2c(cc1OC)CN(CCc1ccc(NC(=O)c3cc(OC)c(OC)cc3NC(=O)c3cnc4ccccc4c3)cc1)CC2,,"human, plasma","intravenous infusion, 5.9 mg/kg, 123 min",3380 nM
Cc1c(-c2ccc(N3CCc4cccc(C(=O)Nc5nc6ccccc6s5)c4C3)nc2C(=O)O)cnn1CC12CC3(C)CC(C)(C1)CC(OCCNCC[C@H](O)CO)(C3)C2,,anaesthetized male beagle dog,"iv infusion, 0.1 mg/kg/min, 135 min",< 4 ng/mL
Cc1c(C(=O)O)ccc2c3n(nc12)[C@@H]1[C@H](C3)N(CC2CC2)[C@@]2(C(=O)Nc3cc(Cl)ccc32)[C@H]1c1cccc(Cl)c1F,,"female BALB/c nude mice, SJSA-1 xenograft, plasma","oral, 2 mg/kg once daily, 2 h, individual animals",2420 nM
O=C(O)CCCCCCCCCCC(=O)O,,"healthy human volunteers, plasma","dose not given, 0 h, baseline phase, no drug",65.4 ± 8.8 nM
CCn1c(C(=O)N(C2CC2)C2CC2)cc2c3c(ncn3C)c(Nc3cc(C)n(C)n3)nc21,,cancer patients,"oral, 200 mg single dose, day 1, 2.0 h",2020 ng/mL
C[C@H](CCC(=O)NCCS(=O)(=O)O)[C@H]1CC[C@H]2[C@@H]3[C@H](O)C[C@@H]4C[C@H](O)CC[C@]4(C)[C@H]3C[C@H](O)[C@]12C,,"healthy human volunteers, plasma","dose not given, 0 h, baseline phase, no drug",14.5 ± 3.8 nM
COc1cccc(-c2n[nH]c(SCc3ccccn3)n2)c1OC,,"Sprague-Dawley rats, both sexes","oral dietary, 100 mg/kg/day, day 7, 24 h",1810 ng/mL
C[C@H](CCC(=O)NCCS(=O)(=O)O)[C@H]1CC[C@H]2[C@@H]3CC[C@@H]4C[C@H](O)CC[C@]4(C)[C@H]3C[C@H](O)[C@]12C,,"healthy human volunteers, plasma","dose not given, 0 h, baseline phase, no drug",34 ± 18.1 nM
CN1CCN(c2ccc(OC(F)(F)F)c(Nc3ncc4c(n3)-c3c(c(C(N)=O)nn3CCO)CC4)c2)CC1,LC-MS/MS,"human, plasma","oral, 12 mg/m2, 3 h post-dose",95.9 ng/mL and 60.7 ng/mL

# Repeated from above:
SMILES,assay,test system,setting,plasma concentration
C[C@H](CCC(=O)NCCS(=O)(=O)O)[C@H]1CC[C@H]2[C@@H]3CC[C@@H]4C[C@H](O)CC[C@]4(C)[C@H]3C[C@H](O)[C@]12C,,"healthy human volunteers, plasma","dose not given, 0 h, baseline phase, no drug",34 ± 18.1 nM
Cc1c(C(=O)O)ccc2c3n(nc12)[C@@H]1[C@H](C3)N(CC2CC2)[C@@]2(C(=O)Nc3cc(Cl)ccc32)[C@H]1c1cccc(Cl)c1F,,"female BALB/c nude mice, SJSA-1 xenograft, plasma","oral, 2 mg/kg once daily, 2 h, individual animals",2420 nM
